Measurements from different studies.
Compare with care: the assays were run in different laboratories.
Cell line: 786-0

Compound = COc1cc(CNC(=O)C[C@H](C)CCC=C(C)C)ccc1OCc1cn(-c2ccccc2)nn1; technique = SRB; concentration = 10 µM; time = 48 h; quantity = growth; value = 113%
Compound = O=C1Nc2ccccc2/C1=N\Nc1nnc2n1N=C(c1ccc(Cl)cc1)CS2; read-out = cell growth or viability; technique = SRB; concentration = 10 µM; quantity = inhibition; value = 12%
Compound = COc1cc(CNC(=O)C[C@H](C)CCC=C(C)C)ccc1OCc1cn(-c2ccc(F)cc2)nn1; technique = SRB; concentration = 10 µM; time = 48 h; quantity = growth; value = 68.2%
Compound = CC(=C(c1ccc(O)cc1)c1ccc(Cl)cc1)c1ccc(Cl)cc1; read-out = cell growth or viability; quantity = GI50; value = 0.66 µM
Compound = CC(=O)OC[C@]1(C)CCC[C@]2(COC(C)=O)[C@@H]1CC[C@@]13C[C@@H](C[C@H](O)[C@H]12)[C@@H](C)C3=O; read-out = cell growth or viability; technique = MTT; quantity = IC50; value = 4.3 µM
Compound = CCC(=C(c1ccc(Cl)cc1)c1ccc(OCCCN(C)C)cc1)c1ccc(OC)cc1; read-out = cell growth or viability; quantity = GI50; value = 0.77 µM
Compound = CC/C=C\C/C=C\C/C=C\C/C=C\C/C=C\C/C=C\CCC(=O)Nc1ccn(C2OC(CO)C(O)C2(F)F)c(=O)n1 (stereo not shown); technique = NCI60 screen; quantity = TGI; value = 14.2 µM
Compound = CC(=O)OC[C@]1(C)CCC[C@]2(C)[C@@H]1CC[C@@]13C[C@@H](C[C@H](O)[C@H]12)[C@H](C)C3=O; read-out = cell growth or viability; technique = MTT; quantity = IC50; value = > 20 µM
Compound = O=C(/C=C/c1ccc2c(c1)C(=O)N(CCCc1ccccc1)CC2)NO; read-out = cell growth or viability; technique = SRB; time = 72 h; quantity = IC50; value = 3.83 µM
Compound = CC(=O)OC[C@@]12CCC[C@@](C)(CO)[C@H]1CC[C@@]13C[C@@H](C[C@H](O)[C@H]12)[C@H](C)C3=O; read-out = cell growth or viability; technique = MTT; quantity = IC50; value = 1.5 µM
Compound = COc1cc(CNC(=O)C[C@H](C)CCC=C(C)C)ccc1OCc1cn(-c2ccc(Br)cc2)nn1; technique = SRB; concentration = 10 µM; time = 48 h; quantity = growth; value = 68.7%
Compound = C=C1C(=O)[C@@]23CC[C@@H]4[C@](C)(COC(C)=O)CCC[C@@]4(CO)[C@@H]2[C@@H](O)C[C@@H]1C3; read-out = cell growth or viability; technique = MTT; quantity = IC50; value = > 20 µM
Compound = COc1cc(CNC(=O)C[C@H](C)CCC=C(C)C)ccc1OCc1cn(-c2ccc(Cl)cc2Cl)nn1; technique = SRB; concentration = 10 µM; time = 48 h; quantity = growth; value = 38.9%

Some of these lines once more:
Compound = CCC(=C(c1ccc(Cl)cc1)c1ccc(OCCCN(C)C)cc1)c1ccc(OC)cc1; read-out = cell growth or viability; quantity = GI50; value = 0.77 µM
Compound = CC/C=C\C/C=C\C/C=C\C/C=C\C/C=C\C/C=C\CCC(=O)Nc1ccn(C2OC(CO)C(O)C2(F)F)c(=O)n1 (stereo not shown); technique = NCI60 screen; quantity = TGI; value = 14.2 µM
